Measurements gathered from unrelated publications.
Numbered parts are unrelated; each lists some results of a single study.
UniProt P57682, sequence (whole entry, looked up): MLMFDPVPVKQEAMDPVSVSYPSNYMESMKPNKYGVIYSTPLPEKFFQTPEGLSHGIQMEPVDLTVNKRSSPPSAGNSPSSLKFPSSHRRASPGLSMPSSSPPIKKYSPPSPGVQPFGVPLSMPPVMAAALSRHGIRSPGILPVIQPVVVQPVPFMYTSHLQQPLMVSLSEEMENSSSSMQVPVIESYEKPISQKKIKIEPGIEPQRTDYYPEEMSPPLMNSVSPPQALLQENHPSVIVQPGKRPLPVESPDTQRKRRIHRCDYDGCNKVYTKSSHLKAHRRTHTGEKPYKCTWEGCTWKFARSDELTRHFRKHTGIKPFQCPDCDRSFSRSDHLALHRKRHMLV
UniProt P18846, sequence (whole entry, looked up): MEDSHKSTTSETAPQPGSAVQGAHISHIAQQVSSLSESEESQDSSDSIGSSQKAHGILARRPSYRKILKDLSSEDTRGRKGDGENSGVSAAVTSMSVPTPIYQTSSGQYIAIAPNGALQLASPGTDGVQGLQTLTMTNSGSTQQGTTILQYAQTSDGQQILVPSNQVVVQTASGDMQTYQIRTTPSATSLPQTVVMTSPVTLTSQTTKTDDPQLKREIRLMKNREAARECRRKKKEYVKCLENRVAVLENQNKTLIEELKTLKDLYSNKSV
UniProt Q13761, sequence (53-186, looked up): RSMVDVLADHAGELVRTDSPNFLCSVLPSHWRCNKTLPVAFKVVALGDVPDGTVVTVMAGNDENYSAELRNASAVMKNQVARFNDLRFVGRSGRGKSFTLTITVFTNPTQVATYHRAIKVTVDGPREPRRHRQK

Block 1 — cell line: HEK-293T; read-out: pseudovirus infection; organism: VSV pseudotyped with SARS-CoV-2 spike; tested at: 10 µM; time: 16 h; relative to: vehicle-treated
`CCc1c2c(nc3ccc(OC(=O)N4CCC(N5CCCCC5)CC4)cc13)-c1cc3c(c(=O)n1C2)COC(=O)[C@]3(O)CC` has a GFP-positive cells of 75.2%.
The GFP-positive cells of `O=C(O[C@H]1CN2CCC1CC2)N1CCc2ccccc2[C@@H]1c1ccccc1` is reported as 29.3%.
`C[C@@](Cc1ccc(O)c(O)c1)(NN)C(=O)O` has a GFP-positive cells of 93.5%.

Block 2 — read-out: enzyme activity; action: inhibitor; tested at: 20 µM; notes: hit confirmation
Target: Replicase polyprotein 1ab, main protease (rep, Severe acute respiratory syndrome coronavirus 2, UniProt P0DTD1)
`COC(=O)C1=C(C)NC(C)=C(C(=O)OCC(C)C)C1c1ccccc1[N+](=O)[O-]` (stereo not shown) has an inhibition of 30.8%.
For `Cc1cc(C)cc(N2C(=O)CC(Sc3nnc[nH]3)C2=O)c1` (stereo not shown), the inhibition was 66.2%.
`CNC(=O)ON(C(C)=O)C(=O)NC` gave an inhibition of 94.7%.
`O=C(N/N=C/c1ccc([N+](=O)[O-])o1)c1cc([N+](=O)[O-])cc([N+](=O)[O-])c1O` gave an inhibition of -5.5%.

Block 3 — method: protein-binding microarray; molecule type: double-stranded DNA, one strand shown; sample: in vitro; tested at: not given; direction: higher = stronger binding
Target: Hepatocyte nuclear factor 3-beta, forkhead domain (FOXA2, Homo sapiens, UniProt Q9Y261, residues 142-269)
Notes: k-mer, scored over probes, only values ≥0.25
Target sequence (chain): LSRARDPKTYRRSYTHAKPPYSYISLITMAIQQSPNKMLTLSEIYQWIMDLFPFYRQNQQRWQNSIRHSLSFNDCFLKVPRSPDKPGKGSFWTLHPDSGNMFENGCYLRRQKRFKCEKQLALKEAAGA
`AATATAAC` gave an E-score of 0.382.
`AGTATGAA` has an E-score of 0.281.
With `CAACAAAA` the E-score was 0.28.
For `CTCAAACA`, the E-score was 0.288.
For `AATAACAG`, the E-score was 0.311.
`ACACAAAG` has an E-score of 0.254.
For `TACTGTAA`, the E-score was 0.258.
`GATACACA` gave an E-score of 0.302.

Block 4 — method: RNAcompete; molecule type: RNA; sample: in vitro; tested at: 20 nM; notes: 7-mer, probes averaged, single round; relative to: mean of 7-mers; direction: higher = stronger binding
Target: PABPC1L2, full length, GST fusion (mouse, UniProt A0ABA7IW68)
Target sequence (chain): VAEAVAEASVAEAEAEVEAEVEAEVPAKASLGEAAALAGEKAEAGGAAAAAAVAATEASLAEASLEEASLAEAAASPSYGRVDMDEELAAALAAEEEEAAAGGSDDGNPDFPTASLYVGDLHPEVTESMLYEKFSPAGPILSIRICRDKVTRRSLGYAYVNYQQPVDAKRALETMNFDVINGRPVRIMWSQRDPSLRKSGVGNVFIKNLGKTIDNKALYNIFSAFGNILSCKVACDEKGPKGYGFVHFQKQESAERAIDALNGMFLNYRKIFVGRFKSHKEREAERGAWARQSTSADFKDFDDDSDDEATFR
For `AAAUGCU`, the 7-mer Z-score was 0.956.
`CUUCCCU` gave a 7-mer Z-score of -0.528.
The 7-mer Z-score of `UUUCUAU` is reported as -0.273.
With `CUAUGAG` the 7-mer Z-score was -0.155.
`CCACCGA` gave a 7-mer Z-score of -0.141.
`UUUAUCG` has a 7-mer Z-score of 0.0587.
For `UACUCUA`, the 7-mer Z-score was -0.217.
The 7-mer Z-score of `ACGUAAC` is reported as -0.186.

Block 5 — action: inhibitor; tested at: 20 µM
Target: Replicase polyprotein 1ab, nsp13 helicase (rep, Severe acute respiratory syndrome coronavirus 2, UniProt P0DTD1)
The inhibition of `Cc1c(C(=O)Nc2ccc(N3C[C@@H](C)O[C@@H](C)C3)nc2)cccc1-c1ccc(OC(F)(F)F)cc1` is reported as 4%.
`Cn1cc(C(=O)OCC2CCN(CCNS(C)(=O)=O)CC2)c2ccccc21` has an inhibition of 4.57%.
`CCc1cccc(CC)c1NC1=NCCN1` gave an inhibition of 0.49%.
The inhibition of `N=C(N)NC(=N)NCCc1ccccc1` is reported as -1.95%.
`CC(=O)CC/C=C(\C)CC/C=C(\C)CC/C=C(\C)CCC=C(C)C` gave an inhibition of 3.94%.
`CCCOc1ccc(S(=O)(=O)N2CCN(CCO)CC2)cc1-c1nc2c(CCC)cn(CC)c2c(=O)[nH]1` has an inhibition of 5.41%.
`C[C@@H]1CN(CC(=O)Nc2ccc3c(c2)Cc2cccc(-c4cc(=O)cc(N5CCOCC5)o4)c2S3)C[C@H](C)O1` has an inhibition of 12.6%.
`CN1CCc2cc(Cl)c(O)cc2[C@@H](c2ccccc2)C1` gave an inhibition of 0.53%.
With `COc1ccc(C(=O)Nc2sc3c(c2C(N)=O)CCCC3)cc1OC` the inhibition was 3.03%.
`Cc1ncc([N+](=O)[O-])n1CC(O)CN1CCOCC1` (stereo not shown) gave an inhibition of 9.56%.
The inhibition of `Nc1ccn([C@@H]2O[C@H](CO)[C@@H](O)C2(F)F)c(=O)n1` is reported as 2.08%.
For `O=C(O)C(=O)CBr`, the inhibition was 40.2%.
`CCc1cc2c(s1)-n1c(C)nnc1CN=C2c1ccccc1Cl` gave an inhibition of 0.08%.
With `N#Cc1ncccn1` the inhibition was -0.08%.
`O=S(=O)(c1cccc2cnccc12)N1CCCNCC1` gave an inhibition of -16.2%.
The inhibition of `CCN1CCC[C@H]1CNC(=O)c1c(O)c(Cl)cc(Cl)c1OC` is reported as -3.03%.
For `O=C1OC(CN2CCOCC2)CN1/N=C/c1ccc([N+](=O)[O-])o1` (stereo not shown), the inhibition was 4.01%.
`COc1ccc2[nH]cc(CCNC(C)=O)c2c1` gave an inhibition of 1.91%.
The inhibition of `COc1ccc2nc3ccc(Cl)cc3c(SCCCN)c2c1` is reported as 0.19%.
With `COc1cc2nccc(Oc3ccc(NC(=O)C4(C(=O)Nc5ccc(F)cc5)CC4)cc3)c2cc1OC` the inhibition was -3.85%.
`Cc1nc2cnc3ccc(C#Cc4cccnc4)cc3c2n1-c1ccc(C(C)(C)C#N)cc1` gave an inhibition of 17.3%.
For `N=C(N)SCc1ccc(B(O)O)cc1`, the inhibition was 15.8%.
`C[C@@]12CCc3occc3[C@H]1CC[C@@]13C[C@@H](CC[C@H]12)[C@@](O)(CO)C3` has an inhibition of -2.33%.
`CCc1cnc(N2CCC(c3nc(COc4ccc(-n5cnnn5)cc4)cs3)CC2)nc1` has an inhibition of 5.88%.
For `O=[N+]([O-])c1ccc(Cl)c([N+](=O)[O-])c1`, the inhibition was -0.25%.

Further values, each from its own experiment — method: protein-binding microarray; molecule type: hairpin DNA; sample: in vitro; tested at: not given; relative to: not given; direction: higher = stronger binding
Notes: whole hairpin DNA, median over replicate spots
`GAGGCCGACCACCGCCAGCCTCCTGGCTGGCGGTGGTCGGCCTCACACTC (5mC at 13)` gave a median fluorescence of 8130 a.u. (Krueppel-like factor 3, full length (KLF3, Homo sapiens, UniProt P57682, residues 1-345)).
With `GAGGCCTGTCGGGGTTGGCCTCCTGGCCAACCCCGACAGGCCTCACACTC (5mC at 33)` the median fluorescence was 5210 a.u. (Runt-related transcription factor 3, Runt domain (RUNX3, Homo sapiens, UniProt Q13761, residues 53-186)).
`GAGGCCGGCTGACGTGAGCCTCCTGGCTCACGTCAGCCGGCCTCACACTC` gave a median fluorescence of 5360 a.u. (Cyclic AMP-dependent transcription factor ATF-1, full length (ATF1, Homo sapiens, UniProt P18846, residues 1-271)).
For `CGGACCGGCCCGGGCATGTCTCCTGACATGCCCGGGCCGGTCCGACACTC (5mC at 6 38)`, the median fluorescence was 12200 a.u. (Cellular tumor antigen p53, full length (TP53, Homo sapiens, UniProt P04637, residues 1-393)).

A few entries again (block 5):
`C[C@@]12CCc3occc3[C@H]1CC[C@@]13C[C@@H](CC[C@H]12)[C@@](O)(CO)C3` has an inhibition of -2.33%.
For `O=[N+]([O-])c1ccc(Cl)c([N+](=O)[O-])c1`, the inhibition was -0.25%.
`CCc1cc2c(s1)-n1c(C)nnc1CN=C2c1ccccc1Cl` gave an inhibition of 0.08%.
The inhibition of `N=C(N)NC(=N)NCCc1ccccc1` is reported as -1.95%.
With `N#Cc1ncccn1` the inhibition was -0.08%.
